Assay results gathered from unrelated publications.

Structure (SMILES) = O=C(c1nc2n(n1)[C@H](c1ccccc1)C[C@@H]2F)C1CC1; species = human; sample = plasma; route = oral; dose = 225 mg; notes = single dose, fasted, healthy volunteers; AUC(0-t) = 31600 ng·h/mL
Structure (SMILES) = CNc1nc(Nc2ccc(-n3cnc(C)n3)c(OC)c2)nc2c1CC[C@H]2c1ccc(F)cc1; species = human; sample = plasma; route = oral; dose = 1200 mg; notes = single dose, healthy volunteers; AUC(0-t) = 50100 ng·h/mL
Structure (SMILES) = CC(C)(Sc1ccncc1-c1ccc(C#N)c2ccccc12)C(=O)O; species = male human; sample = plasma; route = oral; dose = 5 mg; notes = single dose, fasted; AUC(0-t) = 32.6 ng·h/mL
Structure (SMILES) = Cc1c(Cl)c(C)[n+]([O-])c(Cl)c1-c1noc(-c2cc(O)c(O)c([N+](=O)[O-])c2)n1; species = male human; sample = plasma; route = oral; dose = 50 mg; notes = single dose, fasted, healthy volunteers, tablet; AUC(0-t) = 5170 ng·h/mL
Structure (SMILES) = CS(=O)(=O)n1cc2c(n1)CN([C@H]1CO[C@H](c3cc(F)ccc3F)[C@@H](N)C1)C2; species = male human; sample = plasma; route = oral; dose = 400 mg; notes = single dose, fasted, healthy volunteers; AUC(0-t) = 323 µM·h
Structure (SMILES) = O=C(NCCN1CCCC1)c1cc(-c2ccc(CN3CCOCC3)cc2)nc2ccc(F)cc12; species = human; sample = blood; route = oral; dose = 600 mg; notes = single dose, whole blood; AUC(0-t) = 9510 ng·h/mL
Structure (SMILES) = CCC1=C(C)CN(C(=O)NCCc2ccc(S(=O)(=O)NC(=O)N[C@H]3CC[C@H](C)CC3)cc2)C1=O; species = male human; sample = plasma; route = oral; dose = 4 mg; notes = single dose; AUC(0-t) = 1100 ng·h/mL
Structure (SMILES) = CCCOc1ccc([C@H]2CNC(=O)N2c2ccc3[nH]cnc3c2)cc1; species = human; sample = plasma; route = oral; dose = 1200 mg; notes = single dose, fed; AUC(0-t) = 16800 ng·h/mL
Structure (SMILES) = COc1cc(C(=O)NC2CCN(C)CC2)c(F)cc1Nc1ncc(C(F)(F)F)c(Oc2cccc3c2C(=O)N(C)C3)n1; species = human; sample = plasma; route = oral; dose = 200 mg; notes = single dose, fed, healthy volunteers, tablet; AUC(0-t) = 31 µM·h
Structure (SMILES) = CCOc1ccc(Cc2cc([C@@H]3S[C@H](CO)[C@@H](O)[C@H](O)[C@H]3O)c(OC)cc2C)cc1; species = male human; sample = plasma; route = oral; dose = 15 mg; notes = single dose, fasted, healthy volunteers; AUC(0-t) = 5120 ng·h/mL
Structure (SMILES) = C[C@H](N)C(=O)N1C[C@H](CCCB(O)O)[C@](N)(C(=O)O)C1; species = human; sample = plasma; route = oral; dose = 50 mg twice daily; notes = multiple doses, patients; AUC(0-t) = 8120 ng·h/mL
Structure (SMILES) = CC(C)(/C=C(\C#N)C(=O)N1CCC[C@@H](n2nc(-c3ccc(Oc4ccccc4)cc3F)c3c(N)ncnc32)C1)N1CCN(C2COC2)CC1; species = human; sample = plasma; route = oral; dose = 100 mg; notes = single dose, healthy volunteers; AUC(0-t) = 65 ng·h/mL
Structure (SMILES) = Nc1ncc(-c2cnn(CCO)c2)c2scc(-c3ccc(NC(=O)Nc4cccc(F)c4)cc3)c12; species = human; sample = plasma; route = oral; dose = 340 mg; notes = patients; AUC(0-t) = 5760 ng·h/mL
Structure (SMILES) = CN(C)C/C=C/C(=O)Nc1cc2c(Nc3ccc(F)c(Cl)c3)ncnc2cc1O[C@H]1CCOC1; species = human; sample = plasma; route = oral; dose = 10 mg; notes = multiple doses, once daily, steady state, patients; AUC(0-t) = 55.9 ng·h/mL
Structure (SMILES) = C/C(=C\c1csc(C)n1)[C@@H]1C[C@@H]2O[C@]2(C)CCC[C@H](C)[C@H](O)[C@@H](C)C(=O)C(C)(C)[C@@H](O)CC(=O)N1; species = human; sample = plasma; route = intravenous; dose = 70 mg; notes = patients; AUC(0-t) = 2650 ng·h/mL
Structure (SMILES) = CC[C@@H]1C(=O)N(C)c2cnc(Nc3ccc(C(=O)N[C@H]4CC[C@H](N5CCN(CC6CC6)CC5)CC4)cc3OC)nc2N1C(C)C; species = human; sample = plasma; route = intravenous; dose = 150 mg; notes = patients, infusion; AUC(0-t) = 1890 ng·h/mL
Structure (SMILES) = CCCCCN1C[C@H](O)[C@@H](O)[C@H](O)[C@@H]1CO; species = human; sample = plasma; route = oral; dose = 300 mg; notes = single dose, fed, healthy volunteers; AUC(0-t) = 11700 ng·h/mL
Structure (SMILES) = CS(=O)(=O)n1cc2c(n1)CN([C@H]1CO[C@H](c3cc(F)ccc3F)[C@@H](N)C1)C2; species = male human; sample = plasma; route = oral; dose = 5 mg; notes = single dose, fasted; AUC(0-t) = 5.34 µM·h
Structure (SMILES) = Nc1nnc(CN[C@@H]2C[C@H]2c2ccc(OCc3ccccc3)cc2)o1; species = human; sample = plasma; route = oral; dose = 1 mg/day; notes = multiple doses, steady state; AUC(0-t) = 199 ng·h/mL
Structure (SMILES) = CNC(=O)c1ccc(-c2cnc3ncc(Cc4ccc5ncccc5c4)n3n2)cc1F; species = human; sample = plasma; route = oral; dose = 400 mg twice daily; notes = multiple doses, steady state, patients; AUC(0-t) = 22000 ng·h/mL

For quick reference, copied from above:
Structure (SMILES) = CNC(=O)c1ccc(-c2cnc3ncc(Cc4ccc5ncccc5c4)n3n2)cc1F; species = human; sample = plasma; route = oral; dose = 400 mg twice daily; notes = multiple doses, steady state, patients; AUC(0-t) = 22000 ng·h/mL
Structure (SMILES) = C/C(=C\c1csc(C)n1)[C@@H]1C[C@@H]2O[C@]2(C)CCC[C@H](C)[C@H](O)[C@@H](C)C(=O)C(C)(C)[C@@H](O)CC(=O)N1; species = human; sample = plasma; route = intravenous; dose = 70 mg; notes = patients; AUC(0-t) = 2650 ng·h/mL
Structure (SMILES) = CCC1=C(C)CN(C(=O)NCCc2ccc(S(=O)(=O)NC(=O)N[C@H]3CC[C@H](C)CC3)cc2)C1=O; species = male human; sample = plasma; route = oral; dose = 4 mg; notes = single dose; AUC(0-t) = 1100 ng·h/mL
